Measured values collected from several papers.
Compare with care: the assays were run in different laboratories. ± marks the error that the study gave.
Organism: Influenza A virus

CC(=O)N[C@H]1[C@H]([C@H](O)[C@H](O)CO)OC(SCCOCCOCCOCCOCCSC2(C(=O)O)C[C@H](NC(=N)N)[C@@H](NC(C)=O)[C@H]([C@H](O)[C@H](O)CO)O2)(C(=O)O)C[C@@H]1NC(=N)N (stereo partly shown)
IC50 (H1N1 A/California/07/2009): 0.01 to 1 µM

Cc1cc(OCc2nnc(SC3CCCC3)n2-c2cccnc2)ccc1-c1ccc(S(C)(=O)=O)cc1
viability (MDCK, A/WS/33 (H1N1); 0.5 µM, 24 (unit not given), infected cells): 80 ± 5%

NC12CC3CC(CC(C3)C1)C2
EC50 (viral cytopathic effect, MTS; MDCK, H1N1): 445 µM

CC(=O)N[C@H]1[C@H]([C@H](O)[C@H](O)CO)OC(SCCCCCCSC2(C(=O)O)C[C@H](NC(=N)N)[C@@H](NC(C)=O)[C@H]([C@H](O)[C@H](O)CO)O2)(C(=O)O)C[C@@H]1NC(=N)N (stereo partly shown)
IC50 (H1N1 A/California/07/2009): 0.01 to 1 µM

CC1=CC[C@@H]2[C@]34CC[C@](O)(OC3)C(C)(C)[C@@H]4CC[C@@]2(C)[C@@]12Oc1cc(-c3cccnc3)oc(=O)c1[C@@H]2O
IC50 (viral replication; H1N1): 9.08 µM

CC(=O)N[C@H]1[C@H]([C@H](O)[C@H](O)CO)OC(SCCOCCOCCOCCOCCOCCSC2(C(=O)O)C[C@H](NC(N)=O)[C@@H](NC(C)=O)[C@H]([C@H](O)[C@H](O)CO)O2)(C(=O)O)C[C@@H]1NC(=N)N (stereo partly shown)
IC50 (H1N1 A/California/07/2009): 0.01 to 1 µM

NC(=O)c1ncn([C@@H]2O[C@H](CO)[C@@H](O)[C@H]2O)n1
IC50 (viral replication; H1N1): 28.2 µM

CC(N)C12CC3CC(CC(C3)C1)C2 (stereo not shown)
EC50 (viral cytopathic effect, MTS; MDCK, H1N1): 13.8 µM

CCC(CC)O[C@@H]1C=C(C(=O)O)C[C@H](N)[C@H]1NC(C)=O
EC50 (viral replication, visual CPE score; MDCK, H3N2): 20 ± 0.61 µM

COc1ccc(NC(=S)NCc2cccc3cn[nH]c23)cc1OC
EC50 (viral replication, inhibitor; H1N1 PR/8): 0.247 µM

For quick reference, copied from above:
CC(=O)N[C@H]1[C@H]([C@H](O)[C@H](O)CO)OC(SCCCCCCSC2(C(=O)O)C[C@H](NC(=N)N)[C@@H](NC(C)=O)[C@H]([C@H](O)[C@H](O)CO)O2)(C(=O)O)C[C@@H]1NC(=N)N (stereo partly shown)
IC50 (H1N1 A/California/07/2009): 0.01 to 1 µM
